Results collected from several papers.
A part holds a random share of what one study measured. Positions count from the first letter of the parent shown.

Set 1 — method: RNA Bind-n-Seq; molecule type: RNA; medium: in vitro; tested at: 365 nM; reference: no-protein control; direction: higher = stronger binding; quantity: RBNS enrichment (R)
Target: RNA binding protein fox-1 homolog 2, RRM domain, GST-SBP tag (RBFOX2, Homo sapiens, UniProt O43251-10, residues 100-194)
Setting: natural RNA segment, single round, ends assumed
All sequences stand within: GGGAGUUCUACAGUCCGACGAUC … UGGAAUUCUCGGGUGCCAA
Construct (chain): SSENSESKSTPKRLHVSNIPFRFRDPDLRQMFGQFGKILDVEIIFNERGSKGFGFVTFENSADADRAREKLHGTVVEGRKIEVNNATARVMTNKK
UGUCAUCUCUACUGGGCCAUAGGACCGGGCAAACCUACCUUAAAAUAGGCAGAGGAAAGUUUCAUGAGAAGUAGUGUGUUUAACAAGACAGACUUUGGUUGCUGUAUUCA: 0.656
UAGCUACAUUCUGAGAAAAGAGACUCAACAGGAGCUGUUCGCAGGCAUUUUUAAAGCAUUUCCCAACAGAAGAGCAACUAGCAAUAAAAUCCAGCUUUUGUUUGCCAGCC: 0.7
CCUUAAAUACUUGUUAUUGACUGGGGUUAUUUUUAUGCUGUAGCAAAUGUGACAGGCUCUUUUUAGCAAAAUUUUUGAAAAUUUUUUUGGUAUUACUCUGAAACAAAAUU: 0.925
CUGCUGUCAGAGUGGGAGCAGACUCAUCAGCCUUGGCAGAGAAAGAGUGCCCUUCAGGCUGUCAGGUCACGAGCUCCGAGCUGCCCUUAGUCCUUGUCAGCCUCACAGAG: 0.314
ACCCAAGUUUAAUUUGGUAGCUGAAAUAUCUUUUUGCCUCAGACAGCUCUUGAAUUGCUCAUACAGAACAAUUCUGCUGGUGCUGGAGUCUGAAGAAUAUUUUCAUUUGC: 0.267
CUUCAAAGUACACUUGCAAUGCAGUGUAUGCCUGUAGUUGCUGCUGCCACCGGCAGGGGGCCUUUGCUUACAGGGUCUGCAUAGGUUGUUAUGGAUUUGUGACUUUGGCA: 0.739
CGGGCACUUGUUGCAUUGCCUGGCACCCAAUAUUCAGGGUCCAUGACUAAGACUGGUCUUCUCAGAUGCCCUGCUUAAAUCAGGGGCACUUCAGGCUCCACAGGCGUCAU: 0.421
AGACAUUGAGACAUUGUAUUUUGCCUUAGCAGGGAUGAGUUGGUCUCUCCUGGCUGGGCCAUCCCAUCCCCAAUCUGGUUCUUGCACACUCAGGCCUAAUUCCCUCUGCA: 2.96
ACUUAAUGUGUUCCUGAAGAGGUUGUGCUUCCUGACAAAUGCUGUCAGGUCAUUAUUUGCUGUAUCAAAGUUCCAGUGGCUUCAGAAAUCAUAGCAUCCCAUGGUUUUGU: 0.417
GCCGCAGGAUAAAGAAAAUGAUAAACCCACAAAGUGCAUAUUUCAAAUAGCAUAUAUCUGAAAUCGUAUGUCUGUGCAGGUUUAACUGCUGCAUACAGCGGGCACAGAUG: 0.25
ACGCCAGCCAGCCAGGCCGCAGCAGCAUCUGCCUCGAGGCUGCAGCUCCAGCCUGUAACCAGAUGUGGCCAGAUCCUGAGAGCCCACCCGUGUGACCAAACAGUGGAGAU: 0.355
CAAGUCCCUGCCGGGCUCCGCCUUUCCCCCACCCUGGCUCUCAGGGUGACGCCACCCACAGAGAUUUAAUGAGCGUGGGCCUGGACCUUCCCCAGAUGCUGCCAGGCAGC: 0.253

Set 2 — method: RNA Bind-n-Seq; molecule type: RNA; medium: in vitro; tested at: not given; setting: RNA with constant flanks, ends assumed; reference: input RNA pool; direction: higher = stronger binding; quantity: bound/input enrichment
Target: RING finger protein unkempt homolog, zinc fingers 1-6, GST-SBP tag (UNK, Homo sapiens, UniProt Q9C0B0, residues 30-357)
All sequences stand within: GGGAGUUCUACAGUCCGACGAUC … CAACAGAGGAUUGAGCAUCA
Target sequence (chain): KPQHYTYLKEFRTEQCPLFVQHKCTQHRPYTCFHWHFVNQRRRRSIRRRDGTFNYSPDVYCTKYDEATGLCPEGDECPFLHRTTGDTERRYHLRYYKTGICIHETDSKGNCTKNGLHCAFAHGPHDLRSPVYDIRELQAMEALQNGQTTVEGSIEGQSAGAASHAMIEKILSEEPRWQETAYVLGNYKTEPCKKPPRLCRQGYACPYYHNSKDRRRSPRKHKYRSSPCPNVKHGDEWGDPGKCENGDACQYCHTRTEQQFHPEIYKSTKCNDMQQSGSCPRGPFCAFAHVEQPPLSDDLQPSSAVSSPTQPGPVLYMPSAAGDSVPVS
CAAGAUCACCUGUUGCCUGAAGCAGAAGAAAUCACUAUGAUCAGUAUUCAACUUGCUGCCCGGUUCCUCUUUACUACAGGAUUUCACACAAAGAAAGUAGUCCGUGGCUCUGCCAGUGAU: 0.257 ratio
CAGCAAAAAAUAAACAAAUUUGCUCGGAAUACGAGUCGAAUCACAGAGCUAAAGGAGGAAACCGAAGUGAAGAAGAAACAUCUCCAGAACUUAGAGGACGCCUGUGAUGACAUCAUGCUG: 0.202 ratio
GUCCCGGACCGCAGUGUUAAAAAGACCUGAACACAUUUGCUGAAACCUCUUGCUGUGAGACCGCAGAACUUUUGAGCAGGUUUCUCUACACAUAAAAAUCUUUUCAAAAAUACGGAGAAG: 0.249 ratio
GAUCGGACUUGUGAAUUAUCUAGAAGAAAUUGUCUGCUGUCCUUUUCUAAUCCGGUGAAUUCCGAUGCCUCCGAAGACAAGGACAGCCCUUUCGGUAAUGGUCAAUCCAAUUUUUCUGAG: 0.0748 ratio
CACUUGUAUGAAAUAUUCCCUGCAGAGUGAGCAGGAAAUAGGAACAAAGGAAUGGAAUGCUCCGUGGUGGUGGGGGUGCUAUGGGGGGUGGGUGGGAGAGUUGCAGACUUGAGGAGGUUU: 1.92 ratio
AACCAUCCAGGCCAAAUCAGUGCUGGCUACGCUCCUGUUCUGGAUUGUCACACAGCCCACACCGCAUGCAAGUUUGCUGAGCUUAAAGAAAAGAUCGAUCGUCGUUCUGGUAAGAAGCUG: 0.356 ratio
CCAGUGAGAAAAAGAGUGCUGGAAAAACGUGGAGACGACUUUAAAAAGGAGGGGAAAAUUUACCGAUUAAGGACUCAAGAUGAUGGUGAAGAUGAAAACAACACUUGGAAUGGAAAUUCC: 0.342 ratio
AUGGAGAAGGAUUCUCUGCCCCGCUUUGUGCGCUCUGAAUUUUAUAAGGAGCUAAUCAAGCCGUCAUCUGGUCAGGCUUCCAAAAGUUGCCCUGUGAGUUGAGUUACAUCCUUUGUAGCA: 0.128 ratio
UGGCUACUAUAAAACUAUGUACCACUCUCAGAAUAUUCUUAGGCUUUUUUUUUUUCAAGUUACCGAUUUGCUUAAAGUGAGGUUUUUUGGUGUGUGCUUUUUUGUUGUCUUUUGACCCUU: 19.3 ratio
GAGGCAGCUGCUCAGCUCCUGGAAUCUUCAGUUCAAAACCUUUUUAAGCAGGUAGAUUUAACCGACCCCGUACGCUGGAAGAUUUUAAAAGAUAAACAUAUCCCUCAAUUUUUACAAGAA: 0.525 ratio
UAGAUACAUAUAUAUUUGCUUGAAGAAUCACCAAGCAAAUUGGUGAGAGGGUCUUUUCCAACCGAAUUUACACCUCCAUUUGUUGUGUUGUCUUGCACUUCCCAAUGUUGAUGUCUCUAU: 0.434 ratio

Set 3 — method: protein binding microarray; molecule type: double-stranded DNA, one strand shown; medium: in vitro; tested at: not given; reference: not given; direction: higher = stronger binding; quantity: E-score
Target: Histone acetyltransferase KAT6A, winged helix 1, GST fusion (KAT6A, Homo sapiens, UniProt Q92794, residues 1-85)
Setting: 8-mer, flanks averaged, mean of 2 arrays, mostly near background
Residues (chain): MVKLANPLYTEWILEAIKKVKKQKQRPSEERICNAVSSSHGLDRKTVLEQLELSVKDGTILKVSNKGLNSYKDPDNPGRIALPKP
GGAAGCTA: -0.109
CCAAGAAA: -0.287
ACCACGGG: 0.275
AACGGTAT: 0.0219
CACGTATC: -0.132
ATCATCCG: 0.0151
ACCCATGC: -0.0788
TAAAGATA: -0.0993
AGCGCTAG: 0.207
CATCCAAA: -0.148
ATAAGTCA: -0.218
AGTATCAA: -0.15
CCTTCTGC: -0.0977
GCCCTTCA: -0.11
ACCTGTTC: -0.25
ATACGAGA: -0.166
AAAGACCT: -0.00169
CCACTGAA: -0.0275
AGTTCCTC: -0.0529
AATGCCTC: -0.146

Set 4 — target: CCNB3, cyclin fold, Cln2 fusion (human); method: yeast growth competition, sequencing; medium: yeast; setting: strong parent motif; reference: not given; direction: higher = stronger binding; quantity: normalised enrichment score
Parent: BRCA2 docking peptide (human); PSIKRNLLNEFDR; partner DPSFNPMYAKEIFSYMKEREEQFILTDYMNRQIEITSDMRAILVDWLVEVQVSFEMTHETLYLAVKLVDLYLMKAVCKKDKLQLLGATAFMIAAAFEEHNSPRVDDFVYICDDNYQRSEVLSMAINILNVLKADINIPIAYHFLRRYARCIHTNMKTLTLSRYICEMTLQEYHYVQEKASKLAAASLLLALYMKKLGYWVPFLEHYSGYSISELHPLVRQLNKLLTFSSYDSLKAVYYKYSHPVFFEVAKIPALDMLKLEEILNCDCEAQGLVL
S2L: 1.85
R13A: 1.14
R5Q: 0.435
R5N: -0.132
R13P: 0.318
L8E: 0.385
E10Y: 0.795
D12W: 1.03
R5G: -0.0302
E10I: 0.154
D12P: 0.853
R13W: 1.3
L8D: -0.166
S2W: 0.855
L7T: 0.371
E10T: -0.725
R5P: 0.308
L7F: 0.134
N6R: 0.417
P1R: 1.99

Set 5 — method: universal PBM; molecule type: double-stranded DNA, one strand shown; medium: in vitro; tested at: 600 nM; direction: higher = stronger binding; quantity: E-score
Target: Sal-like protein 4, full length isoform A (SALL4, Homo sapiens, UniProt Q9UJQ4, residues 1-1053)
Sequence of UniProt Q9UJQ4 (whole entry, looked up): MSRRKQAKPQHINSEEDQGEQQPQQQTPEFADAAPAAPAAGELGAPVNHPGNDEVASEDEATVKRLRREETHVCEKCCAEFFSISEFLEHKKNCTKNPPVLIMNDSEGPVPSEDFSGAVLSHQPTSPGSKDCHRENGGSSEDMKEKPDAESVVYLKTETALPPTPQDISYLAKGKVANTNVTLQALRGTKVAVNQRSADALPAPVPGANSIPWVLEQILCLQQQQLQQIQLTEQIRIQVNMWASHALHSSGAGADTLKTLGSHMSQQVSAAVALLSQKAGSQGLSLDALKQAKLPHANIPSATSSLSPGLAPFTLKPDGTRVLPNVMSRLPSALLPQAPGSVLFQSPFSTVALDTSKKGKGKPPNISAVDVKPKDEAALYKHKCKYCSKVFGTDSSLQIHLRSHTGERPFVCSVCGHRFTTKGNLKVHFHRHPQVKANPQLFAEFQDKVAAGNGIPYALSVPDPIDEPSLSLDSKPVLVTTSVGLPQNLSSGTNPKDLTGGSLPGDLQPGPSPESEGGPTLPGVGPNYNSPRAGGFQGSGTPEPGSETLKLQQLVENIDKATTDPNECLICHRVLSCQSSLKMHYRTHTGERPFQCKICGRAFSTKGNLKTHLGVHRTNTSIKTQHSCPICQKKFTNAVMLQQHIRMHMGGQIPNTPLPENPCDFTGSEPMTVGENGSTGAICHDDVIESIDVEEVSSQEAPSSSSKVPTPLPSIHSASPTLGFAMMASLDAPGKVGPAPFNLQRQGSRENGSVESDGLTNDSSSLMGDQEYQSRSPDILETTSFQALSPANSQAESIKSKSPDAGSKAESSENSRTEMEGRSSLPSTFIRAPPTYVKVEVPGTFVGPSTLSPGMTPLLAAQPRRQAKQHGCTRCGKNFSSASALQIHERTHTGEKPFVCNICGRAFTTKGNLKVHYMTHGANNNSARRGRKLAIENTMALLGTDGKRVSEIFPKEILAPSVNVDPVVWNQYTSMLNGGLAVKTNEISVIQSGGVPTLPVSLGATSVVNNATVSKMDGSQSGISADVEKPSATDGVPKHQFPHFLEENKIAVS
Setting: 8-mer, flanks averaged, mean of replicates
CACTAACG: 0.0912
ACCCCGCC: -0.155
AAACCTCC: -0.16
CGGTGGAC: -0.215
ACCAAGCT: -0.0556
GGAGGGCA: -0.203
ACTGGTCT: -0.151
AAGGCCGC: -0.252
ACGCCCGA: -0.24
AGTAGTTA: 0.18
ATACTGCG: -0.0198
GCCGATAC: -0.155
ACAGTAGT: 0.077
GTCAAACA: 0.0652
TAGTAGGA: -0.141
CAATCTGC: -0.0736
CGCACAAG: -0.101
ACGCGTTG: -0.0482
CCCCCTCC: -0.409
ATTCTCGG: 0.0687
TGATACAA: 0.202
GTCGGAAA: 0.0647
AAACACGA: 0.143
AAGTTCAA: 0.225
CGAGGCTC: -0.253

Repeated from above (set 2):
CAAGAUCACCUGUUGCCUGAAGCAGAAGAAAUCACUAUGAUCAGUAUUCAACUUGCUGCCCGGUUCCUCUUUACUACAGGAUUUCACACAAAGAAAGUAGUCCGUGGCUCUGCCAGUGAU: 0.257 ratio
CAGCAAAAAAUAAACAAAUUUGCUCGGAAUACGAGUCGAAUCACAGAGCUAAAGGAGGAAACCGAAGUGAAGAAGAAACAUCUCCAGAACUUAGAGGACGCCUGUGAUGACAUCAUGCUG: 0.202 ratio
GUCCCGGACCGCAGUGUUAAAAAGACCUGAACACAUUUGCUGAAACCUCUUGCUGUGAGACCGCAGAACUUUUGAGCAGGUUUCUCUACACAUAAAAAUCUUUUCAAAAAUACGGAGAAG: 0.249 ratio
GAUCGGACUUGUGAAUUAUCUAGAAGAAAUUGUCUGCUGUCCUUUUCUAAUCCGGUGAAUUCCGAUGCCUCCGAAGACAAGGACAGCCCUUUCGGUAAUGGUCAAUCCAAUUUUUCUGAG: 0.0748 ratio
CACUUGUAUGAAAUAUUCCCUGCAGAGUGAGCAGGAAAUAGGAACAAAGGAAUGGAAUGCUCCGUGGUGGUGGGGGUGCUAUGGGGGGUGGGUGGGAGAGUUGCAGACUUGAGGAGGUUU: 1.92 ratio
AACCAUCCAGGCCAAAUCAGUGCUGGCUACGCUCCUGUUCUGGAUUGUCACACAGCCCACACCGCAUGCAAGUUUGCUGAGCUUAAAGAAAAGAUCGAUCGUCGUUCUGGUAAGAAGCUG: 0.356 ratio
CCAGUGAGAAAAAGAGUGCUGGAAAAACGUGGAGACGACUUUAAAAAGGAGGGGAAAAUUUACCGAUUAAGGACUCAAGAUGAUGGUGAAGAUGAAAACAACACUUGGAAUGGAAAUUCC: 0.342 ratio
AUGGAGAAGGAUUCUCUGCCCCGCUUUGUGCGCUCUGAAUUUUAUAAGGAGCUAAUCAAGCCGUCAUCUGGUCAGGCUUCCAAAAGUUGCCCUGUGAGUUGAGUUACAUCCUUUGUAGCA: 0.128 ratio
UGGCUACUAUAAAACUAUGUACCACUCUCAGAAUAUUCUUAGGCUUUUUUUUUUUCAAGUUACCGAUUUGCUUAAAGUGAGGUUUUUUGGUGUGUGCUUUUUUGUUGUCUUUUGACCCUU: 19.3 ratio
